Published values pooled from the literature.
Every numbered part comes from another study and shows a few of its results, in no order. Substitutions count along the parent as printed.

Series 1
Target: Sal-like protein 4, full length isoform A (SALL4, Homo sapiens, UniProt Q9UJQ4, residues 1-1053)
Chain of UniProt Q9UJQ4 (whole entry, looked up): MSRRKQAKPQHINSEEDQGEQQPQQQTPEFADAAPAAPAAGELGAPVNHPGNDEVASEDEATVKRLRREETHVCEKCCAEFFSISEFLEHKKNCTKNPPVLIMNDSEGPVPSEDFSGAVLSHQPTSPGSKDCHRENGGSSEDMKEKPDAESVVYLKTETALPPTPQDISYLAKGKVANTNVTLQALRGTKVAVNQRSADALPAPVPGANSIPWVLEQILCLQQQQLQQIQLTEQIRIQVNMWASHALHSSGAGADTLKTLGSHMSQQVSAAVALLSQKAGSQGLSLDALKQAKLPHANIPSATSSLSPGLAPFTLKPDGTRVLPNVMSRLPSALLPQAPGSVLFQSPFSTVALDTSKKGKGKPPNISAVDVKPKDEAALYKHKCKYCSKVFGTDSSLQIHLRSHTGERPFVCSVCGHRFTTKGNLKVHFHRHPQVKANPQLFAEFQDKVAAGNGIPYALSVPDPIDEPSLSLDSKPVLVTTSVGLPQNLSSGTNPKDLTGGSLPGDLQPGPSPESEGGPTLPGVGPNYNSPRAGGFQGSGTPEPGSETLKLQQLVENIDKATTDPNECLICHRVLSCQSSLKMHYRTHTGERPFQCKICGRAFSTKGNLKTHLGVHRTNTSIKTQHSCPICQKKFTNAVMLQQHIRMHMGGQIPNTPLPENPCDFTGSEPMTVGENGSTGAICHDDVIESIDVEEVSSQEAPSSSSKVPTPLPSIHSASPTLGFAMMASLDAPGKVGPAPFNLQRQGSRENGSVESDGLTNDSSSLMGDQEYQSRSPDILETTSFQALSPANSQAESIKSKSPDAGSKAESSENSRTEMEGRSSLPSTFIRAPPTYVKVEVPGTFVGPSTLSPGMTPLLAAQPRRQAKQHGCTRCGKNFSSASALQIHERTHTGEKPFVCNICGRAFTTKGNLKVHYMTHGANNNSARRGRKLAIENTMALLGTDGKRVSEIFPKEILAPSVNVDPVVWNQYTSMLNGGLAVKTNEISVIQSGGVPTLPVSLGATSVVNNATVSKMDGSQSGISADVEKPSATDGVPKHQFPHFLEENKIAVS
Method: universal PBM
Form: double-stranded DNA, one strand shown
Medium: in vitro
Tested at: 600 nM
Notes: 8-mer, flanks averaged, mean of replicates
Direction: higher = stronger binding
Strand | E-score
AATTGGTG | 0.161
GATGCATC | 0.008
AATAGGCA | 0.214
GTCGCATA | 0.141
TCTGGGAA | -0.0744
CCCCTTCG | -0.31
TGCCGTAA | -0.0242
AAGCACAG | -0.0336
CGAGGCGC | -0.266
GGTAGAAC | -0.117
CTTATACA | 0.249
CAGTATGG | -0.0507
GGTAACTA | 0.1
GCAACAAA | 0.0975
CTCTTCAA | -0.0135
GGCCAACC | -0.315

Series 2
Target: RNA binding protein fox-1 homolog 2, RRM domain, GST-SBP tag (RBFOX2, Homo sapiens, UniProt O43251-10, residues 100-194)
Method: RNA Bind-n-Seq
Form: RNA
Medium: in vitro
Tested at: 365 nM
Notes: natural RNA segment, single round, ends assumed
Reference: no-protein control
Direction: higher = stronger binding
All sequences stand within: GGGAGUUCUACAGUCCGACGAUC … UGGAAUUCUCGGGUGCCAA
Target sequence (chain): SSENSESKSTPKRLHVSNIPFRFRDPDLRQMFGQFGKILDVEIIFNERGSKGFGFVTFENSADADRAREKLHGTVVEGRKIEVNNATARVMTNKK
Strand | RBNS enrichment (R)
ACCAUGGUGGCAUGGACCACCCUCAUCCAUGCAACUCCAGGCCCCAUGGGAACGGAUGUGGAAGGAAGAACUGUCACCCUCUUAAGGCCCAGGGUCGGAGCCCAGGGCCU | 0.414
UCUAAGACACAGAAAUGUAUUUAAUAAAAACCUCGAGAGAGUGAUGGGUGGAACCCCUUCUCCUUGAAAGUGUGUACAGAUAUUCCAUUUUGUUUGGAUAUAGUUUAUAG | 0.401
CUGUCAUGACAUGCUAACUAGACUUCAGGGGAGCCACUUCUGUUUUCAGCCCCUCCCUGGAAUAGUGAGUUGGGAGGAUGGGGAGACAGCUAACCAACUGCAUUACCCAA | 0.899
UAAUGCUGUAACCCUUUAAUACAGUUCCUCAUGUUCUGGUGACCCCUCCCCCAACUAUAAAAUUAUUUUGUGGCUACUUCAUAACUGUAAUUUUGCUACUGUUAUGAAUC | 0.555
ACGUUAGCUGUCCCAGGCCACAAGCCAUACCCAACCUUGACCUUCCUGGGUCACAAUGAUCAGUUGGUUUUUCCAUUAGGGAGGGAAGGUCUGGGCCUGCUUAGCAAGAA | 0.277
UUGCUGUCUGAGAUAUCCUUCAUAGUAUUCCAUGGCUCCCAUACUGCAGUCUAGUUAAGCAAAGAACUCUCACUAGAAAGGUUUAUUUCAGCCGGGUGUGGUGGUGGUGC | 0.606
GUGUGCGCAGAACUGUCACCUCUAGGCUUCCGGGUGUUGCCUCCGAUGCACCUGCCUCCCUUCAUCCUCUCUCUGGGGCUGCGUUGCCUCGGCAAUGCCCCUUUUGGAGC | 0.221
AGCCCCACGGGUCCACGAUGUACAAAAUCAUUUUGACCAGCAGGUCUGCAGACCCUUCCCCCACUGCUCAAAGUCCUCCCGUGCUUGGUGUGUGGGACCACCGGCUCCAC | 0.207
AGGCACAGGAAAGCAAAGGAAAUGUGCCACCCUUUAGCCUGGCAGGGUCUCCCUGCCCACUGGGCUGUUCCAGACCUGUGAUACUGUGUUUGUAUGUUGAUAUCCCAUGU | 0.643
GAUGAAAAUCCACAGCACAGACCUCUACCGUGUUUCUCUUCCAUCCCUAAACCACUUCCUUAAAAUGUUUGGAUUUGCAAAGCCAAUUUGGGGCCUGUGGAGCCUGGGGU | 0.452
UCGGUCCCUGCAGCUAAUGCUCGAAGACCUUCUGGGCUCCUCGUGGCACUAGGCCCUUCACCUUGACUGUGUGCAUGCAUGACCUGCAAUAGAGCCCACCAACCACAUAG | 2.4
GUCUUAUGUAGGGAGGGGGCAAGUAUGAAGUAAGGUAAUUAUAUACUACUCUCAUUCAGGAUUCUUGCUCCCAUGCUGCUGUCCCUUCAGGCUCACAUGCACAGGAAUGC | 0.753

Series 3
Target: ABI1, truncated, D143A, DHFR fusion (Arabidopsis thaliana)
Method: DHFR PCA, deep sequencing
Medium: yeast
Notes: methotrexate growth selection, single substitutions
Added: (+)-ABA 0.11 µM
Reference: wild-type fitted maximum
Direction: higher = stronger binding
Starting sequence: PYL1, truncated, DHFR fusion (Arabidopsis thaliana); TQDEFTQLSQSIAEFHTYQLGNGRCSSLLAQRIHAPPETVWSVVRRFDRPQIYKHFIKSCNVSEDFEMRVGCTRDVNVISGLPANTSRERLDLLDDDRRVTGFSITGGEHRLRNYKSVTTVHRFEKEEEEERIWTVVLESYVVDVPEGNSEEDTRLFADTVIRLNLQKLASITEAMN; partner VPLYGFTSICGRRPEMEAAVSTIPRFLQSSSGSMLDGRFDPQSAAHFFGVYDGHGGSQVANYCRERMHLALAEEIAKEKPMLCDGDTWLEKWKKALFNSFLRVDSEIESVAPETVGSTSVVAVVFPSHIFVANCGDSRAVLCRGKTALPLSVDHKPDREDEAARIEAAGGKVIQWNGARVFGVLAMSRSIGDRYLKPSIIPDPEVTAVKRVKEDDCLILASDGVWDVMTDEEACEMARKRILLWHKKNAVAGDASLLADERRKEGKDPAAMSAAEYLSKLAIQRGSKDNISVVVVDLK
Variant | relative binding score
I172G | -7.52%
E130L | 11.5%
T173V | 19.2%
V121P | -5.83%
V137F | -4.76%
W41L | -2.43%
W41G | 0.643%
Q7M | 29.6%
S63T | 19.5%
R98K | 37.5%
P146I | 17.9%
R46I | -11.6%
V40S | -3.3%
G148K | -13.4%
E152K | 8.86%
L82C | 16.3%
V142I | 38.3%
C60L | -1.28%
R155D | -11.1%

Series 4
Cell line: yeast with cyclin A1-Cln2 chimera
Observed: cell growth
Mode: binder
Method: competitive growth deep sequencing
Form: peptide
Tested at: concentration not given
Notes: peptide tiling library
Direction: direction not given
Sequence | growth enrichment score
VLLKRLQDVVSERANH | 0.501
KPITLDTTDFQESFVT | 0.0215
FREFEVEKQTAEETGL | 1.2
PAKRRLELGE | 0.358
RKLHFEDEVT | -0.351
SAVPLILPQAPSGPSY | 0.171
IPDRSTKPVVFSPT | -0.582
AIRKMREDRWAVIAKM | -0.844
KRCATPVIIDEILPSK | 0.219
TARRIFQEPTEPKTKA | -0.134
SSEVARHLLFQSHM | -0.278
IVLICAKRSLCAAFSV | -0.0865

Series 5
Target: Fragile X messenger ribonucleoprotein 1, C-terminal low-complexity region (Fmr1, Mus musculus, UniProt P35922)
Method: RNA Bind-n-Seq
Form: RNA
Medium: in vitro
Tested at: 200 nM
Notes: whole 134-nt RNA, ends assumed
Added: 150 mM KCl
Reference: input library
Direction: higher = stronger binding
All sequences stand within: GGGAGUUCUACAGUCCGACGAUC … UGGAAUUCUCGGGUGUCAAGG
Strand | log2 enrichment
UGCUGGAGAUGCAAUAUAUGAGGUGGUGAGUCUACAGCGAGAGUCUGACAAGGAGGAACCAGUCACUCCUACUAGUGGAGGGGGUCCAAU | -1.91
UGUGCUACACAUCGUAUGUACCGAAUCGGGGAAAAAAAGGGGUUUUUUUGGGGUUUUUGGGGAAAGUAUUAUGUUACGCCGUUCGGAUCU | 0.507
AGUCCUGUGCUACACAUCGUAUGUACCGAAUCGGUUUUUUUGGUUUUUUUGGAAAGGAAAGUAUUAUGUUACGCCGUUCGGAUCUGCACU | -1.23
UUUGAUGACAGUCUGCAGGAGCUGCCUGGUGAAGUACCUGGAGGAGAACAACACCUGCCCCACCUGCAGGAUUGUGAUCCACCAGAGCCA | -1.28
CAAGUCCUGUGCUACACAUCGUAUGUACCGAAUCGGUUUUUUUGGUUUUUGGUGGAAAGUAUUAUGUUACGCCGUUCGGAUCUGCACUUC | -0.564
UGGGAGGUGGAUUUUGUUUAUUUUUUUAGCUCAUUUCCAGGGGUGGGAAUUUUUUUUUAAUAUGUGUCAUGAAUAAAGUUGUUUUUUAAA | 0.266
AGUCCUGUGCUACACAUCGUAUGUACCGAAUCAAACCCCCCCAAACCCAAACCCAAAAAAGUAUUAUGUUACGCCGUUCGGAUCUGCACU | -0.0668
CAAGUCCUGUGCUACACAUCGUAUGUACCGAAUCGGGUGGGUUUUUGGGUUUGGGAAAGUAUUAUGUUACGCCGUUCGGAUCUGCACUUC | 0.721
GUCCUGUGCUACACAUCGUAUGUACCGAAUCGGGGAAAAAGGGGUUUUUGGGGAGGGGAAAGUAUUAUGUUACGCCGUUCGGAUCUGCAC | 0.521
ACCAUGCAGGUGGGCAUCUUUGGGAAGUGGGGCAAGGGGGGGAUAGGGAGGGGUGUAACACUUUGGGAACAGGUGGUCCCAGGUCGUUUC | 0.764
UGGGAGGUGGAUUUUGUUUAUUUUUUUAGCUCAUUUCCAGGGGUGGGAAUUUUUUUUUAAUAUGUGUCAUGAGUAAAGUUGUUUUUGAAA | 0.43
CACAGACAACACGCACCCACACAGACACAGAGGGAAGGGGUUGGGAUGGGGACAGGGUGCACAGCAGGGCGGGCUAGGACCCCAGCCCCU | 1.36
ACCAUGCAGGUGGGCAUCUUUGGGAAGUGGGGCAAGGGGGGGAUAGGGAGGGGGGAAACACUUUGGGAACAGGUGGUCCCAGGUCGUUUC | 1.02
AAGUCGCGUGUCUAGGUGAGUCGCGGUGGGUCCUCGCUUGCAGUUCAGCGACCACGGUGGGUACCGUUUUUGCGAGGAUUGUUUGUCCCC | -1.39
